# Measurements of several laboratories.
# Each numbered part is a random draw from the data of one study; scales do not carry over between parts. “And” joins repeats or separate records; there may be more than shown.
# Sequence of UniProt P16234 (whole entry, looked up): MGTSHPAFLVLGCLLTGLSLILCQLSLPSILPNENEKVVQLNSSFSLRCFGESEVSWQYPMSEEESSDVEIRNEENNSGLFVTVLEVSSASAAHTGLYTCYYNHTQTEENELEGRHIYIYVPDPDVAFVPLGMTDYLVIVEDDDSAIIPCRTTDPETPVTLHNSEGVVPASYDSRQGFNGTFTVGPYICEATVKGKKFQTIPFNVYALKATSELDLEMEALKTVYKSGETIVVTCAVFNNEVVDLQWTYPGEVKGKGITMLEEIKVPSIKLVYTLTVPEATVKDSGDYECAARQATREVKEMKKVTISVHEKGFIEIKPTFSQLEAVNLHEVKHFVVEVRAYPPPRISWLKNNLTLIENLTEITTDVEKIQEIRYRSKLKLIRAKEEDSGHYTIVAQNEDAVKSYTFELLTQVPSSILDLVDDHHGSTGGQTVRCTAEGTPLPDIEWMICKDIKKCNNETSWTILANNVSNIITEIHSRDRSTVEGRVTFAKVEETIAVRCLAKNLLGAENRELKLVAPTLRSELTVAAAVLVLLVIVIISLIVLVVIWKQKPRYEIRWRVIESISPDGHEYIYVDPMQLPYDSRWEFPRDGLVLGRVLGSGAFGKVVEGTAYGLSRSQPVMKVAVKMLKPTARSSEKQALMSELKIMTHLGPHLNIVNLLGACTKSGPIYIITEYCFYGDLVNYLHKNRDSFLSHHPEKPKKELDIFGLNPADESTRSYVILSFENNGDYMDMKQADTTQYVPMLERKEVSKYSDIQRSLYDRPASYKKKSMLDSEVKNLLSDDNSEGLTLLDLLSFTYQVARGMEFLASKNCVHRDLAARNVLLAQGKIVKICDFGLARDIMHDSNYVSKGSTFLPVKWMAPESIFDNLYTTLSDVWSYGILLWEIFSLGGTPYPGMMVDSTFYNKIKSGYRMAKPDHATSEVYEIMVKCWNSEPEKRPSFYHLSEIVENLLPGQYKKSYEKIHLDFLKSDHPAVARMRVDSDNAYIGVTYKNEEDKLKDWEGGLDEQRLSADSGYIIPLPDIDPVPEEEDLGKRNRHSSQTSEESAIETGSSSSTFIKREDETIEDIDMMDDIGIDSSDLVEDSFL
# Sequence of UniProt Q00534 (whole entry, looked up): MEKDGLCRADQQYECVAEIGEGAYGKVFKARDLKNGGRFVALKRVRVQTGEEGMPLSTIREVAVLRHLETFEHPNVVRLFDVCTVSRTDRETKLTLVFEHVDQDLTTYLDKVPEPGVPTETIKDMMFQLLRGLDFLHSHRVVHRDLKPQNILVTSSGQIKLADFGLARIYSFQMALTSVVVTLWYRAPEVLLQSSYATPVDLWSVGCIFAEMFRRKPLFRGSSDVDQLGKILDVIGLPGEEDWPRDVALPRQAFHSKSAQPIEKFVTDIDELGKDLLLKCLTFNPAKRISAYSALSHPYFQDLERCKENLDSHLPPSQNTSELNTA
# Sequence of UniProt Q13188 (whole entry, looked up): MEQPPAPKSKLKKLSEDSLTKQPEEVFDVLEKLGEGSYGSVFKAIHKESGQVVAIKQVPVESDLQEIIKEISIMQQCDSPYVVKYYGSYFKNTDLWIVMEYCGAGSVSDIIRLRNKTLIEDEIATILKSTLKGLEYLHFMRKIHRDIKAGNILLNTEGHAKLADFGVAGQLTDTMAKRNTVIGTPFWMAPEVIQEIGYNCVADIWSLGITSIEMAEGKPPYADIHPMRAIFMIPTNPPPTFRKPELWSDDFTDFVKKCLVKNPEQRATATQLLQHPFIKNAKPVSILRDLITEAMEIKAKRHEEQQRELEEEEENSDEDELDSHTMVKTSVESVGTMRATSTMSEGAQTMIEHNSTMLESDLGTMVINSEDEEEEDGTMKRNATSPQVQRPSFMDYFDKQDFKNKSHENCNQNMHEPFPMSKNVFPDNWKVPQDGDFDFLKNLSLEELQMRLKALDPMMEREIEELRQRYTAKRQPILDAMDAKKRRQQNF
# Sequence of UniProt Q05397 (whole entry, looked up): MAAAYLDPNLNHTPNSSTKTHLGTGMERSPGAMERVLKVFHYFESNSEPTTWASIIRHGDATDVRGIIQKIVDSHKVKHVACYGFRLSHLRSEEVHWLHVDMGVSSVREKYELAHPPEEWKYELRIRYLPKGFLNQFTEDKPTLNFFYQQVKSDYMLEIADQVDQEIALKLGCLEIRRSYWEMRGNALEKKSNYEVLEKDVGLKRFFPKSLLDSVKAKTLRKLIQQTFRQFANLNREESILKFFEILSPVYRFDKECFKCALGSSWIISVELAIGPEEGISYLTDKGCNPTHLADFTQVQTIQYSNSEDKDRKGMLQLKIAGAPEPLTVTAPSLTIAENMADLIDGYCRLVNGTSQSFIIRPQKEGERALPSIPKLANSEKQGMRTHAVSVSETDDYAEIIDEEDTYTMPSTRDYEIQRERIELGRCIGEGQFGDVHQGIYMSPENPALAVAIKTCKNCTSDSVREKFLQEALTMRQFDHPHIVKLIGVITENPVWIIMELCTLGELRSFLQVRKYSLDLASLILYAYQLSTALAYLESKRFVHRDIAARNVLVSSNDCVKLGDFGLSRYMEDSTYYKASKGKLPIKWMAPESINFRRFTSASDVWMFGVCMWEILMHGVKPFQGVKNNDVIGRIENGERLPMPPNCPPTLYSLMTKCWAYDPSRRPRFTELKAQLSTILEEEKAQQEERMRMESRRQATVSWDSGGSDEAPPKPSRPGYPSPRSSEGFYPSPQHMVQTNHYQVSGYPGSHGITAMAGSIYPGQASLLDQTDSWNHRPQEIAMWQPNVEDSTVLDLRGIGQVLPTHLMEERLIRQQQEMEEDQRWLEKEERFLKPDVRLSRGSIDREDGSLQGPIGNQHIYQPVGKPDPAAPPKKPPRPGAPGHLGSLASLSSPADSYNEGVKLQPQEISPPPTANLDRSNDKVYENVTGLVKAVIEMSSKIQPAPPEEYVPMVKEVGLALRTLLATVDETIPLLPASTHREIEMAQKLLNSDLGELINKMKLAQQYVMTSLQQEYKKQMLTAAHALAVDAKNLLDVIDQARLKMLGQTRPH
# Sequence of UniProt Q13882 (whole entry, looked up): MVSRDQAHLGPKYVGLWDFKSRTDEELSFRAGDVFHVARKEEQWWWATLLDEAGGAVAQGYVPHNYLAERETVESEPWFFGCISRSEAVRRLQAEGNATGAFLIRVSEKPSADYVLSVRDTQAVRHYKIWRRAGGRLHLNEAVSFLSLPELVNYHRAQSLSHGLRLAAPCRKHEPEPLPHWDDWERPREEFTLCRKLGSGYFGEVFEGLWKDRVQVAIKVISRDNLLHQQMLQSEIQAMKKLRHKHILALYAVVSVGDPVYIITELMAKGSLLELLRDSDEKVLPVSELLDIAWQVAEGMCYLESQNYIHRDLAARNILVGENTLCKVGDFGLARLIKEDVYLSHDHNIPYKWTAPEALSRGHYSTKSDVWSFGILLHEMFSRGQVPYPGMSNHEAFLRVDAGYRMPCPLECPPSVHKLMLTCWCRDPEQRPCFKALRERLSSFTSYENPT
# Sequence of UniProt O15111 (whole entry, looked up): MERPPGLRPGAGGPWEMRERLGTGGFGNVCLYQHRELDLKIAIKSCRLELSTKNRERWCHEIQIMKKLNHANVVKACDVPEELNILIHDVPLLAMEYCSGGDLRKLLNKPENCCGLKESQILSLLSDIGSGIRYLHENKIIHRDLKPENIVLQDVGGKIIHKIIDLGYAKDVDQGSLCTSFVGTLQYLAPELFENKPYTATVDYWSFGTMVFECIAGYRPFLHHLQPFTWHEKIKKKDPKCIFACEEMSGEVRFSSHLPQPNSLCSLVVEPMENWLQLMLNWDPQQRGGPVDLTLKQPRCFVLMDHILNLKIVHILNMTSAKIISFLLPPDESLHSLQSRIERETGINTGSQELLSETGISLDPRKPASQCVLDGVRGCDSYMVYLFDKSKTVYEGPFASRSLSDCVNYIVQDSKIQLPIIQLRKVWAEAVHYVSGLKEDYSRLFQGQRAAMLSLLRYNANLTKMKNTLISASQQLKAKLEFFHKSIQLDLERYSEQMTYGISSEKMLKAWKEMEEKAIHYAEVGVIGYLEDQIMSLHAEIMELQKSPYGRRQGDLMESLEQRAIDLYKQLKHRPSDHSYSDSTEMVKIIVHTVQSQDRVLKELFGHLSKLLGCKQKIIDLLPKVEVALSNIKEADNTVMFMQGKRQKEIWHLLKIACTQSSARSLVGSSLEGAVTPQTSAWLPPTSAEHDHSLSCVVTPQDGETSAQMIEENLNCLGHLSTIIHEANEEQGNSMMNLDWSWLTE
# Sequence of UniProt Q9BXA7 (whole entry, looked up): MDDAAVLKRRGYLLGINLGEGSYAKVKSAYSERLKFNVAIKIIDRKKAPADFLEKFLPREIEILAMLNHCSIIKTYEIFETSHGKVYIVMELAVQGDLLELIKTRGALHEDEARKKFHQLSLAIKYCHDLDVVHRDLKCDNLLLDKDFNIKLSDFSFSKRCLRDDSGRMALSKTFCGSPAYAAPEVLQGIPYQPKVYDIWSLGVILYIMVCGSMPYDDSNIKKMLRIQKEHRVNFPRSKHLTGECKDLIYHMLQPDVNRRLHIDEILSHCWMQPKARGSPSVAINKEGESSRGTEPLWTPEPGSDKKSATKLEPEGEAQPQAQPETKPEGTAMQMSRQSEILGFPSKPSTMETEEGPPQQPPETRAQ
# Sequence of UniProt Q9UQM7 (whole entry, looked up): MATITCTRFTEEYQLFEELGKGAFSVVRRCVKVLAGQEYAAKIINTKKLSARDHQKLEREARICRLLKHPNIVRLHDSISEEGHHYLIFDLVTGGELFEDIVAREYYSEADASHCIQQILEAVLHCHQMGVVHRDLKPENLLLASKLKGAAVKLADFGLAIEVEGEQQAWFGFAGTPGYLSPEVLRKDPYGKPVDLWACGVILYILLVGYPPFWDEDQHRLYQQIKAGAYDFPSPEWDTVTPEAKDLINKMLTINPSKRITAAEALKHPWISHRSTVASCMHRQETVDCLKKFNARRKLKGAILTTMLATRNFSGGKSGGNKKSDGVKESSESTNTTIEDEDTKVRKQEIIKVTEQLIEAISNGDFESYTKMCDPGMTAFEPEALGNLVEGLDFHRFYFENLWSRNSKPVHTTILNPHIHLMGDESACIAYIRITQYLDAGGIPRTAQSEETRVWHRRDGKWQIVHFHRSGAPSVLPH

# Block 1
# Species: mouse
# Medium: microsomes or S9
# Concentration: 2 µM
# Time: 0.5 h
Structure (SMILES),remaining compound
Fc1ccc(-c2c(-n3cnnc3)nc3ccccc3c2Cl)cc1,88.3%
O=C1Nc2ccccc2C12Oc1ccccc1C1CC(c3cccnc3)=NN12 (stereo not shown),18.9%
CC(=O)Oc1cc(OC(C)=O)c2c(c1)-c1coc3cc(OC(C)=O)cc(c13)C2=O,0.0112%
CCN(CC)CC/C=C/C1(O)c2ccccc2-c2ccccc21,0.352%
O=c1c2ccc(Cl)cc2ncn1CCS(=O)(=O)c1cc(Cl)ccc1Cl,81.3%
COc1cc(=O)[nH]cc1C(=O)N1CCOC(c2nc(C)cs2)C1 (stereo not shown),89.4%
Cc1ccc2c(c1)N(C(=O)c1ccncc1)CC(C)O2 (stereo not shown),93.3%
Clc1ccc(OCCn2cnc(Cl)c2Cl)cc1,> 99%
Cc1sc(NC(=O)NCCC(=O)OC(C)C)c(C#N)c1C,0.454%
CC(C)CN1C(=O)CCC[C@]12CN(Cc1ccnc(N3CCCC3)n1)C[C@H]2c1ccccc1,0.0168%
CCN(CC)/C(=N\S(=O)(=O)c1ccccc1C)c1ccccc1,0.109%
Nc1c(-c2nc(-c3cccc(Br)c3)cs2)nnn1-c1ccc(F)cc1F,9.3%
O=C1COc2ccc(-c3cc4ccccn4c3)cc2N1,0%
CCN(CCCNc1nc(-c2ccccc2)no1)c1ccccc1,0.389%
Fc1cc(F)cc(-c2noc3ncnc(Nc4ccc(-c5ccno5)cc4)c23)c1,8.42%
Cc1cc(C(C)(C)C)cc(C)c1CS(=O)(=O)CCn1cccn1,2.45%
Cc1nc(C)c(COCc2ccccc2)c(-c2ccc(Cl)cc2)c1CO,0.173%

# Block 2
# Cell line: mouse MPNST tumor cells
# Method: high-content nuclear imaging
# Measured: cell number
# Concentration: 10 µM
# Time: 12 h
# Notes: mean of 2 replicates
# Baseline: plate mean
# Direction: higher = more cells
Compound,nuclei count [z-score]
Cc1cc(C)cc(NC(N)=Nc2ccccc2C(F)(F)F)c1,2.17
N=C(N)c1ccc(-c2ccc(-c3ccc(C(=N)N)cc3)o2)cc1,-0.633
CC(C)c1ccc(NC(=O)Cn2cnc3c2c(=O)n(C)c(=O)n3C)cc1,0.432
COc1ccc(CNC(=O)Nc2ncc([N+](=O)[O-])s2)cc1,4.84
O=C(CCSCc1ccco1)NNC(=O)N1Cc2ccccc2Oc2ccc(Cl)cc21,0.146
CCN1CCN(Cc2ccc(-c3cc4c(N[C@H](C)c5ccccc5)ncnc4[nH]3)cc2)CC1,-4.74
CC(=O)Nc1nc(C)c(S(=O)(=O)Nc2ccc(C(O)(C(F)(F)F)C(F)(F)F)cc2)s1,0.367
CC(C)(Sc1ccc(CCN(CCCCC2CCCCC2)C(=O)NC2CCCCC2)cc1)C(=O)O,0.824
CCCCNc1c(C(=O)OCC)c(C)nc2c1cnn2CC,0.79
C[C@]12CC[C@@H]3c4ccc(O)cc4CC[C@H]3[C@@H]1CCC2=O,1.27
Cc1cc(C=C2SC(=O)N(c3ccccc3)C2=O)c(C)n1-c1cccnc1,-0.484
CC(=O)c1ccc2c(c1)N(CCCN(C)C)c1ccccc1S2,0.271
OC(CCN1CCCC1)(c1ccccc1)C1CCCCC1 (stereo not shown),1.69

# Block 3
# Cell line: sample I colorectal tumour organoid
# Concentration: 1 µM
# Baseline: DMSO
Structure (SMILES),viability
COc1cc(Nc2ccnc3ccc(Br)cc23)cc(OC)c1OC,93.9%
CCN(CC)S(=O)(=O)Nc1cccc(-c2ccc3c(NC(=O)C4CC4)n[nH]c3c2)c1,91.7%
CCC(=NO)C(C)=Cc1ccc(F)c(C)c1,117%
CCOc1cn(-c2ccc(F)cc2C)nc1C(=O)Nc1ccc(Oc2ccnc3cc(OC)c(OC)cc23)c(F)c1,96.5% and 111%
CC(C)C(=O)Nc1n[nH]c2cc(-c3cccc(NS(=O)(=O)C4CC4)c3)ccc12,106%
CC(=O)NCC(=O)N1[C@@H]2CC[C@H]1c1ccc(Nc3ncc(C(F)(F)F)c(NC4CCC4)n3)cc12,34.3% and 32.8%
O=C(O)c1ccc(-c2coc3ncc(-c4ccccc4)cc23)cc1Cl,103%
O=C(Nc1cccnn1)N1CC(CC=Cc2cncc(Oc3ccc(C(F)(F)F)cn3)n2)C1,114%
Cn1cc(-c2ccc3occ(-c4ccccc4-c4ccccc4)c3n2)cn1,123%
COc1ccc2c(O[C@@H]3C[C@H]4C(=O)N[C@]5(C(=O)O)CC5/C=C\CCCCC[C@H](NC(=O)OC5CCCC5)C(=O)N4C3)cc(-c3csc(NC(=O)C(C)C)n3)nc2c1C (stereo partly shown),82%
O=C(NCc1ccccc1)c1ccc(S(=O)(=O)NCc2ccccc2)cc1,92.2%
CCC(=N\O)/C(C)=C/c1ccc(F)cc1,89%
COc1cccc(NC(=O)c2nc3scc(CN(C)Cc4ccccc4)c3c(=O)[nH]2)c1,146%
CCNC(=O)c1cc2c(N3CCOC[C@H]3C)ccnc2n1C,105% and 93.7%

# Block 4
# SMILES: COc1cc2c(cc1OC)-c1[nH]nc(Nc3cccc(F)c3)c1C2
# Observed: enzyme activity
# Action: inhibitor
# Concentration: 0.5 µM
# Baseline: control
target,remaining activity
"Cyclin-dependent kinase 6, with cyclin D1 (CDK6, Homo sapiens, UniProt Q00534)",92.9%
"BRAF (Homo sapiens, UniProt P15056)",93.8%
"CAMK2A (Homo sapiens, UniProt Q9UQM7)",95.6%
"SYK (Homo sapiens, UniProt P43405)",103%
"PTK6 (Homo sapiens, UniProt Q13882)",81%
"CHUK (Homo sapiens, UniProt O15111)",91.4%
"PDGFRA (Homo sapiens, UniProt P16234)",33.4%
"TSSK1B (Homo sapiens, UniProt Q9BXA7)",71.7%
"PTK2 (Homo sapiens, UniProt Q05397)",88.2%
"STK3 (Homo sapiens, UniProt Q13188)",93%
"Aurora kinase B (AURKB, Homo sapiens, UniProt Q96GD4)",79.2%

# For quick reference, copied from above (block 3):
Structure (SMILES),viability
O=C(O)c1ccc(-c2coc3ncc(-c4ccccc4)cc23)cc1Cl,103%
O=C(Nc1cccnn1)N1CC(CC=Cc2cncc(Oc3ccc(C(F)(F)F)cn3)n2)C1,114%
Cn1cc(-c2ccc3occ(-c4ccccc4-c4ccccc4)c3n2)cn1,123%
COc1ccc2c(O[C@@H]3C[C@H]4C(=O)N[C@]5(C(=O)O)CC5/C=C\CCCCC[C@H](NC(=O)OC5CCCC5)C(=O)N4C3)cc(-c3csc(NC(=O)C(C)C)n3)nc2c1C (stereo partly shown),82%
O=C(NCc1ccccc1)c1ccc(S(=O)(=O)NCc2ccccc2)cc1,92.2%
